Published values gathered from unrelated publications.
Several values in a cell are separate wells, animals, samples, runs or records.
Target: Cytochrome P450 2C9 (CYP2C9, Homo sapiens, UniProt P11712)
Sequence of UniProt P11712 (whole entry, looked up): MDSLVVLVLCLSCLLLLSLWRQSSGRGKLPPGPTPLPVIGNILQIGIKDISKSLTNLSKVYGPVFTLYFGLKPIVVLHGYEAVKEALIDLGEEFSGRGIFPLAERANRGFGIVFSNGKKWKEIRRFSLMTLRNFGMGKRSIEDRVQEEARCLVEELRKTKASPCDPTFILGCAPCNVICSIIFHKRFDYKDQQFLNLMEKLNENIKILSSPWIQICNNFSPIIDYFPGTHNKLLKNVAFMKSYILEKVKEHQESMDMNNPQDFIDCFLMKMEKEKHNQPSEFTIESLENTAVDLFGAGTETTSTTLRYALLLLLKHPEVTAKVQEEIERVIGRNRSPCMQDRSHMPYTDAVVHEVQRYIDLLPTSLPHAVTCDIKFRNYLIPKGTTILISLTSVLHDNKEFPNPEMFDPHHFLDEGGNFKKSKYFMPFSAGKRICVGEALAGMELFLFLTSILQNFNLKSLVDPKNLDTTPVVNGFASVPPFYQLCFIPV

`Cc1ccc(OCC(=O)N(Cc2cccs2)c2ccn[nH]2)cc1` has an inhibition of 39% (enzyme activity, inhibitor, fluorescence; Sf9; 10 µM).
`CCC(=O)N(C)c1ccc(Cl)c(Cl)c1` gave a half-life of over 3 h (recombinant enzyme Supersomes; 1 µM, with: NADPH).
For `COc1cc(OC)c(F)c(/C=C/c2cnc3ccn(S(=O)(=O)c4cn(CCF)cn4)c3n2)c1F`, the inhibition was 21% (enzyme activity, inhibitor; human, liver microsomes; 10 µM, 20 min, pH 7.4).
Under enzyme activity, `CC(C)(C)[C@H](NC(=O)[C@H](CCONC(=N)N)NC(=O)Cc1ccc(CNC(=N)N)cc1)C(=O)N[C@@H](CCONC(=N)N)C(=O)NCc1ccc(C(=N)N)cc1` is recorded as “no effect” (human liver microsomes; 50 µM).
`O=C(CS(=O)(=O)Cc1ccco1)C12CC3CC(CC(C3)C1)C2` has an inhibition of 52% (10 µM).
For `C=CC(=O)Nc1cc(Nc2nccc(-c3cn(C)c4ccccc34)n2)c(OCC(F)(F)F)nc1N(C)CCN(C)C`, “activity vs control” read 94.5% (enzyme activity, inhibitor; human, liver microsomes; 0.1 µM).
With `Brc1ccccc1-c1nnc(CSc2nnnn2-c2ccccc2)o1` the inhibition was 86% (enzyme activity, inhibitor, fluorescence; insect cell microsomes; 10 µM).
`COC(=O)c1ccc2c(c1)NC(=O)/C2=C(\Nc1ccc2c(c1)CCN2C(=O)CN1CCOCC1)c1ccccc1` gave an IC50 of 35.2 µM (10 min, with: diclofenac 5 µM).
`C[N+]1(CC(=O)OC2CCCCCCCCCCC2)CCCCC1` gave an IC50 of over 10 µM (inhibitor).
`CCC1CC2C(C)=CC3C(=O)CCCC3C=CC(C)=CC2C(=O)O1` (stereo not drawn) has a remaining activity of 102% (human liver microsomes; 10 µM, 10 min, pH 7.4, with: diclofenac 1 µM; relative to: untreated).
`Cc1ncncc1-c1ccc(C(=O)N2CC[C@H](C(=O)Nc3cc(F)c(F)c(F)c3)C2)[nH]1` has an inhibition of 90% (enzyme activity, inhibitor; human, liver microsomes; 10 µM, 10 min, pH 7.4).
`NS(=O)(=O)NCC(F)(F)c1ccccc1F` has an IC50 of > 120 µM and > 74 µM (enzyme activity, inhibitor, fluorescence).

Some of these lines once more:
`Cc1ccc(OCC(=O)N(Cc2cccs2)c2ccn[nH]2)cc1` has an inhibition of 39% (enzyme activity, inhibitor, fluorescence; Sf9; 10 µM).
